Measurements pooled from the literature.
Compare with care: the assays were run in different laboratories. ± gives the spread as reported.

`CC[C@H](C)[C@H](NC(=O)[C@@H](NC(=O)C(C)(C)N)C(C)C)C(=O)N[C@@H](C)C(N)=O` gave a viability of 95.1% (PC-12; Aβ42-induced neurotoxicity, inhibitor, MTT; concentration not given, 6 h, 37 °C, peptide to Aβ42 1:2, with: Aβ42 2 µM; relative to: untreated cells).
The CC50 of `CC/C=C\C/C=C\C/C=C\C/C=C\C/C=C\C/C=C\CCC(=O)Nc1ccn(C2OC(CO)C(O)C2(F)F)c(=O)n1` (stereo not drawn) is reported as 57.2 µM (OVCAR-4; NCI60 screen).
`CCCCN(CCCC)CC(O)COc1c2ccoc2c(OC)c2oc(CC)cc(=O)c12` (stereo not drawn) gave a selectivity index of 3.81 (SW-620; MTT; relative to: IC50 HaCaT over IC50 SW-620).
`CCCc1cc2c(c(OC)c1OC)OCO2` gave a GI50 of 193 µM (HCT-116; cell growth or viability, MTT; 72 h).
`CC(C)C[C@@H](N)C(=O)NCC(=O)N[C@H](C)C(=O)N[C@H](CO)C(=O)N[C@H](Cc1c[nH]c2ccccc12)C(=O)N[C@H](Cc1c[nH]cn1)C(=O)N[C@H](CCCNC(=N)N)C(=O)N1CCC[C@@H]1C(=O)N[C@H](CC(=O)O)C(=O)N[C@H](CCCCN)C(=O)N[C@H](CCCCN)C(=O)N[C@H](CCCNC(=N)N)C(=O)NCCCCCC(=O)N[C@@H](CCCCN)C(=O)N[C@@H](CCCNC(=N)N)C(=O)N[C@@H](CCCCN)C(=O)N[C@H](C(=O)N[C@@H](CC(N)=O)C(=O)N[C@@H](CC(N)=O)C(=O)N[C@@H](CC(N)=O)C(=O)N1CCC[C@H]1C(=O)N[C@@H](CCCNC(=N)N)C(=O)N[C@H](C(=O)N[C@@H](CS)C(N)=O)[C@@H](C)O)[C@@H](C)O` — result for ERK phosphorylation: “decreased” (CHO cells expressing CXCR4; inhibitor, western blot; 50 µM, 30 min, with: SDF-1α 12.5 nM).
`CC[C@H]1OC(=O)[C@H](C(C)C)NC(=O)[C@H](C)OC(=O)[C@@H](C(C)C)NC(=O)[C@@H](C(C)C)OC(=O)[C@H](C(C)C)NC(=O)[C@H](C)OC(=O)[C@@H](C(C)C)NC(=O)[C@@H](C(C)C)OC(=O)[C@H](C(C)C)NC(=O)[C@H](C)OC(=O)[C@@H](C(C)C)NC1=O` gave a selectivity ratio of 23 (U-87 MG; cell growth, SRB; relative to: IC50 in HA over IC50 in U-87 MG).
Under protein level, `C[C@H]1C(OCCCCCCCC[P+](c2ccccc2)(c2ccccc2)c2ccccc2)O[C@@H]2O[C@@]3(C)CCC4[C@H](C)CCC1[C@]42OO3` (stereo partly drawn) is recorded as “decreased” (J82 and T24; western blot, measured: cyclin D1; concentration not given, 48 h).
`COc1cc(C(=O)NCCOCCOCCOCCNC(=O)c2ccc([18F])nc2)ccc1NC(=O)C1NC(CC(C)(C)C)C(C#N)(c2ccc(Cl)cc2F)C1c1cccc(Cl)c1F` (stereo not drawn) has a maximal uptake of 1090 ± 84 %/mg (SJSA-1; 1 h).
Under “mRNA fold change”, `O=C1/C(=C/c2ccc3c(c2)OCCO3)SC(=S)N1[C@@H]1O[C@H](CO)[C@@H](O)[C@H](O)[C@H]1O` is recorded as 8.4 fold (HepG2; measured: Casp-9; IC50, 48 h; relative to: untreated).
Under “pathway activation z-score”, `COC1CC(=O)N(C)C=CCCCC(=O)N(C)C(C(C)C)C(=O)N(C)C(CC(C)C)C(=O)OC(C(C)C)CC(C)C1` (stereo not drawn) is recorded as 2 (HCT-116; RNA sequencing, measured: integrin signalling; 20 µM, 12 h; direction not given).
`CC[C@@]1(OC(=O)CCC(=O)NCCCC[C@H](NC(=O)[C@H](Cc2ccccc2)NC(=O)[C@H](Cc2ccccc2)NC(=O)CCSC2=C(/C=C/C3=[N+](C)c4ccccc4C3(C)C)CCC/C2=C\C=C2\N(C)c3ccccc3C2(C)C)C(=O)N[C@@H](CCCCNC(=O)CCCC[C@@H]2SC[C@@H]3NC(=O)N[C@@H]32)C(=O)O)C(=O)OCc2c1cc1n(c2=O)Cc2cc3ccccc3nc2-1` gave a viability of 45.3% (4T1; CCK-8; 5 µM, 6 h then 24 h, with: 808 nm laser 1 W/cm2 5 min; relative to: untreated).
`COC(=O)[C@H](CC(C)C)NC(=O)[C@@H]1CCCN1C(=O)[C@@H](NC(=O)[C@H](CCC(=O)C=[N+]=[N-])NC(=O)OCc1ccccc1)C(C)C` has an apoptotic cells of 13.1 ± 3.4% (YAC128 mouse medium spiny neurons; TUNEL; 50 µM, 24 h after NMDA, baseline subtracted, with: NMDA 500 µM for 10 min).

Repeated from above:
`COc1cc(C(=O)NCCOCCOCCOCCNC(=O)c2ccc([18F])nc2)ccc1NC(=O)C1NC(CC(C)(C)C)C(C#N)(c2ccc(Cl)cc2F)C1c1cccc(Cl)c1F` (stereo not drawn) has a maximal uptake of 1090 ± 84 %/mg (SJSA-1; 1 h).
